Experimental data pooled from the literature.
Parts stem from different laboratories: compare values within a part only.

Set 1
Target: Histone acetyltransferase KAT6A, winged helix 1, GST fusion (KAT6A, Homo sapiens, UniProt Q92794, residues 1-85)
Technique: protein binding microarray
Molecule type: double-stranded DNA, one strand shown
Matrix: in vitro
Concentration: not given
Setting: 8-mer, flanks averaged, mean of 2 arrays, mostly near background
Baseline: not given
Reading: higher = stronger binding
Construct (chain): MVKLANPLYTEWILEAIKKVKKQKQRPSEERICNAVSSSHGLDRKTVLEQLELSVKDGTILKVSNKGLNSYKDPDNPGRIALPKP
Oligonucleotide | E-score
CTTGGGCA | -0.048
TCCGGACA | 0.0267
CGACGCTC | 0.314

Set 2
Target: Interferon regulatory factor 5, full length, phosphomimetic (IRF5, Homo sapiens, UniProt Q13568-2, residues 1-514, K96S/S451D/S453D/S456D/S462D)
Technique: protein-binding microarray
Molecule type: double-stranded DNA, one strand shown
Matrix: in vitro
Concentration: 250 nM
Setting: 60-bp whole probe
With: salmon DNA 0.4 mg/ml
Baseline: random background probes
Reading: higher = stronger binding
Oligonucleotide | log fluorescence
GCCTAGCACTACGATTTCGGGTTTCGAGACGTGCTAGTCTTGATTCGCTTGACGCTGCTG | 4.59 z-score
GCCTAGCACGACGATCTCAGTATCGACACGTGCTAGGTCTTGATTCGCTTGACGCTGCTG | 2.15 z-score
GCCTAGCACTTAGGTTTCCTACTGCTTCAGTGCTAGGTCTTGATTCGCTTGACGCTGCTG | 0.461 z-score

Set 3
Target: Sal-like protein 4, full length isoform B (SALL4, Homo sapiens, UniProt Q9UJQ4-2, residues 1-616)
Technique: universal PBM
Molecule type: double-stranded DNA, one strand shown
Matrix: in vitro
Concentration: not given
Setting: 8-mer, flanks averaged, mean of replicates
Reading: higher = stronger binding
Oligonucleotide | E-score
AATGAGCG | 0.104
AGTATGTG | 0.192
AGGTAGAC | -0.13
CGACTCAG | -0.182

Further values, each from its own experiment
Molecule | target | test | system | setting | scale | quantity | result
PhoQ, residues 284 288 289 292 302 303 SCKMEA | PhoP, residues 12 14 15 18 19 LYHSL (Escherichia coli, UniProt P23836) | Sort-seq, item: YFP reporter | E. coli | PhoQ-PhoP variant library, with: 10 µM Mg2+ | baseline: high Mg2+ state, higher = stronger signaling | fold induction | 15.4

Excerpt of the above (set 2):
Oligonucleotide | log fluorescence
GCCTAGCACTACGATTTCGGGTTTCGAGACGTGCTAGTCTTGATTCGCTTGACGCTGCTG | 4.59 z-score
GCCTAGCACTTAGGTTTCCTACTGCTTCAGTGCTAGGTCTTGATTCGCTTGACGCTGCTG | 0.461 z-score
